Assay results collected from several papers.
Every numbered part comes from another study and shows a few of its results, in no order.

Study 1
SMILES: Cc1cc(NC(=O)c2cccc(S(F)(F)(F)(F)F)c2)cc(-n2ccn3nc(-c4cccnc4)cc23)c1
Read-out: cell-free assay
Method: competition with immobilised ligand
Concentration: 1 µM
It gave 100% for remaining binding (Activin receptor type-1-like (ACVRL1, Homo sapiens, UniProt P37023)).
The remaining binding was 94.9% (Calcium/calmodulin-dependent protein kinase type 1D (CAMK1D, Homo sapiens, UniProt Q8IU85)).
The remaining binding was 100% (Phosphatidylinositol 3-kinase C2 domain-containing subunit gamma (PIK3C2G, Homo sapiens, UniProt O75747)).
For Serine/threonine-protein kinase DCLK1 (DCLK1, Homo sapiens, UniProt O15075): remaining binding read 66.2%.
It gave 100% for remaining binding (Serine/threonine-protein kinase 32B (STK32B, Homo sapiens, UniProt Q9NY57)).
For Mitogen-activated protein kinase kinase kinase 20 (MAP3K20, Homo sapiens, UniProt Q9NYL2): remaining binding read 84.4%.
It gave 100% for remaining binding (Calcium/calmodulin-dependent protein kinase type II subunit gamma (CAMK2G, Homo sapiens, UniProt Q13555)).
The remaining binding was 100% (Tyrosine-protein kinase ABL1, phosphorylated (ABL1, Homo sapiens, UniProt P00519, H396P)).
It gave 73.7% for remaining binding (Serine/threonine-protein kinase ULK2 (ULK2, Homo sapiens, UniProt Q8IYT8)).
It gave 99.1% for remaining binding (Phosphatidylinositol 5-phosphate 4-kinase type-2 gamma (PIP4K2C, Homo sapiens, UniProt Q8TBX8)).

Study 2
SMILES: O=c1cc(N2CCOCC2)oc2c1ccc1ccccc12
Read-out: enzyme activity
Mode: inhibitor
Concentration: 0.5 µM
Relative to: control
Tyrosine-protein kinase Mer (MERTK, Homo sapiens, UniProt Q12866) — remaining activity: 96.4%.
For Serine/threonine-protein kinase TBK1 (TBK1, Homo sapiens, UniProt Q9UHD2): remaining activity read 102%.
It gave 124% for remaining activity (Glycogen synthase kinase-3 beta (GSK3B, Homo sapiens, UniProt P49841)).
It gave 103% for remaining activity (Activin receptor type-1B (ACVR1B, Homo sapiens, UniProt P36896)).
The remaining activity was 103% (Macrophage-stimulating protein receptor (MST1R, Homo sapiens, UniProt Q04912)).
Tyrosine-protein kinase ABL2 (ABL2, Homo sapiens, UniProt P42684) — remaining activity: 101%.
It gave 102% for remaining activity (Casein kinase I isoform gamma-2 (CSNK1G2, Homo sapiens, UniProt P78368)).
Fibroblast growth factor receptor 1 (FGFR1, Homo sapiens, UniProt P11362) — remaining activity: 92.1%.
It gave 92.5% for remaining activity (Serine/threonine-protein kinase Nek6 (NEK6, Homo sapiens, UniProt Q9HC98)).
For Serine/threonine-protein kinase TAO2 (TAOK2, Homo sapiens, UniProt Q9UL54): remaining activity read 108%.
For Mitogen-activated protein kinase kinase kinase 5 (MAP3K5, Homo sapiens, UniProt Q99683): remaining activity read 98.2%.
For Serine/threonine-protein kinase ULK2 (ULK2, Homo sapiens, UniProt Q8IYT8): remaining activity read 94.9%.
For Tyrosine-protein kinase JAK3 (JAK3, Homo sapiens, UniProt P52333): remaining activity read 103%.
For Casein kinase I isoform gamma-3 (CSNK1G3, Homo sapiens, UniProt Q9Y6M4): remaining activity read 98.1%.

Study 3
SMILES: NC(N)=NC(=O)c1nc(Cl)c(N2CCCCCC2)nc1N
Read-out: β-arrestin recruitment
Mode: agonist
Method: PRESTO-Tango
Concentration: 10 µM
Relative to: untreated
G-protein coupled receptor family C group 6 member A (GPRC6A, Homo sapiens, UniProt Q5T6X5) — “fold over basal”: 1 fold.
It gave 1.08 for “fold over basal” (Muscarinic acetylcholine receptor M5 (CHRM5, Homo sapiens, UniProt P08912)).
For G-protein coupled receptor 171 (GPR171, Homo sapiens, UniProt O14626): “fold over basal” read 0.6.
Opsin-5 (OPN5, Homo sapiens, UniProt Q6U736) — “fold over basal”: 0.89.
It gave 0.51 fold for “fold over basal” (Glucagon-like peptide 2 receptor (GLP2R, Homo sapiens, UniProt O95838)).
C-X-C chemokine receptor type 4 (CXCR4, Homo sapiens, UniProt P61073) — “fold over basal”: 0.66.
It gave 0.55 for “fold over basal” (Probable G-protein coupled receptor 152 (GPR152, Homo sapiens, UniProt Q8TDT2)).
It gave 0.58 for “fold over basal” (G-protein coupled receptor 157 (GPR157, Homo sapiens, UniProt Q5UAW9)).
For Alpha-2B adrenergic receptor (ADRA2B, Homo sapiens, UniProt P18089): “fold over basal” read 1.23.
It gave 0.85 for “fold over basal” (Neuropeptide Y receptor type 2 (NPY2R, Homo sapiens, UniProt P49146)).

Study 4
Matrix: 1,9-decadiene/PBS
pH: 7.4
`CC(C)C[C@@H]1NC(=O)[C@H](CC(C)C)NC(=O)[C@@H](C(C)C)NC(=O)[C@H](C(C)C)NC(=O)[C@H](C)NC(=O)[C@H](Cc2cscn2)NC(=O)[C@H](CCC(=O)N2CCCC2)NC1=O` gave a logD of -3.12.
`CC(C)C[C@@H]1NC(=O)[C@H](CC(C)C)NC(=O)[C@H](CC(C)C)NC(=O)[C@H](C(C)C)NC(=O)[C@H](C)NC(=O)[C@H](CCC(=O)N2CCCC2)NC(=O)[C@H](C)NC1=O` has a logD of -2.15.
`CC(C)C[C@@H]1NC(=O)[C@H](CC(C)C)NC(=O)[C@@H](C(C)C)NC(=O)[C@@H](C)NC(=O)[C@H](C(C)C)NC(=O)[C@H](Cc2cscn2)NC(=O)[C@H](C)NC1=O` gave a logD of -2.65.
The logD of `CC(C)C[C@@H]1NC(=O)[C@H](C)NC(=O)[C@@H](C(C)C)NC(=O)[C@H](C(C)C)NC(=O)[C@H](CC(C)C)NC(=O)[C@@H](CC(C)C)NC(=O)[C@H](CC(C)C)NC1=O` is reported as 0.474.
`CC(C)C[C@@H]1NC(=O)[C@H](C)NC(=O)[C@@H](CC(C)C)NC(=O)[C@H](C)NC(=O)[C@H](C(C)C)NC(=O)[C@H](CC(C)C)NC(=O)[C@@H](CC(C)C)NC1=O` gave a logD of -0.137.
The logD of `CC(C)C[C@@H]1NC(=O)[C@H](Cc2cscn2)NC(=O)[C@H](C)NC(=O)[C@H](CC(C)C)NC(=O)[C@@H](CCC(=O)N2CCCC2)NC(=O)[C@H](CC(C)C)NC(=O)[C@@H](CC(C)C)NC1=O` is reported as -1.48.
`CC(C)C[C@@H]1NC(=O)[C@H](CC(C)C)NC(=O)[C@H](CC(C)C)NC(=O)[C@H](C(C)C)NC(=O)[C@@H](CCC(=O)N2CCCC2)NC(=O)[C@H](C)NC(=O)[C@H](C)NC1=O` gave a logD of -2.03.
For `CC(C)C[C@@H]1NC(=O)[C@@H](C)NC(=O)[C@H](Cc2cscn2)NC(=O)[C@@H](CC(C)C)NC(=O)[C@H](C(C)C)NC(=O)[C@H](CC(C)C)NC(=O)[C@@H](CC(C)C)NC1=O`, the logD was -0.497.
`CC(C)C[C@@H]1NC(=O)[C@H](CC(C)C)NC(=O)[C@@H](CC(C)C)NC(=O)[C@H](C(C)C)NC(=O)[C@H](C)NC(=O)[C@@H](CC(C)C)NC(=O)[C@H](C)NC1=O` gave a logD of -0.306.
